# Published values of several laboratories.
# Each numbered part is a random draw from the data of one study; scales do not carry over between parts. Positions count from the first letter of the parent shown.

# Block 1
# Target: CCNE1, cyclin fold, Cln2 fusion (human)
# Technique: yeast growth competition, sequencing
# Sample: yeast
# Setting: strong parent motif
# Reference: not given
# Direction: higher = stronger binding
# Parent: BRCA2 docking peptide (human); PSIKRNLLNEFDR
Substitution,normalised enrichment score
L8Y,-0.0165
S2G,1.4
D12P,0.582
L7G,-0.0172
L8W,-0.136
L7W,0.482
L8T,0.604
D12T,0.783
E10K,0.101
L7S,-0.34
F11S,-0.858

# Block 2
# Target: Interferon regulatory factor 7, full length, phosphomimetic (IRF7, Homo sapiens, UniProt Q92985, residues 1-503, S471D/S472D/S475D/S476D/S477D/S483D/S484D/S487D)
# Technique: protein-binding microarray
# Molecule type: double-stranded DNA, one strand shown
# Sample: in vitro
# Tested at: 2200 nM top
# Setting: 60-bp whole probe
# With: salmon DNA 0.4 mg/ml
# Reference: random background probes
# Direction: higher = stronger binding
# Shared flanks, not repeated: GCCTAGCAC … GTCTTGATTCGCTTGACGCTGCTG
# Residues (chain): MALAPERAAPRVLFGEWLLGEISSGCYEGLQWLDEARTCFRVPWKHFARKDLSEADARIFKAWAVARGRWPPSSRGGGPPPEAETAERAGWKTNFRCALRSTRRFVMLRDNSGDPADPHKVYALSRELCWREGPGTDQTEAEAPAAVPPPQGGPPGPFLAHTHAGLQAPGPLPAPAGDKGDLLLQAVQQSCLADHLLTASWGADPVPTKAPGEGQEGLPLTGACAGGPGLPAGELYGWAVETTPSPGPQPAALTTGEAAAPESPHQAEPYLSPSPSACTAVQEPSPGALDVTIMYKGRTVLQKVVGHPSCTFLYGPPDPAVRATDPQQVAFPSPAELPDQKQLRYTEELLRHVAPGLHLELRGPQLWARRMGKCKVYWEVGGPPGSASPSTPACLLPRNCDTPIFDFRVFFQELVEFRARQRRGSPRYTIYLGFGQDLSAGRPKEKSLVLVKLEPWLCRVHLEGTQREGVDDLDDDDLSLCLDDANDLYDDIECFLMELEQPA
Oligonucleotide,fitted relative affinity
TACGGTTCCGGTTTCGGGACGTGCTAG,5.84 z-score
TTAGGTCTCCTACTCCTTTAGTGCTAG,0.839 z-score
TTAGGTACCCTACTGCTTTAGTGCTAG,0.484 z-score
GACGATCTCAGCATCGAGACGTGCTAG,-0.0648 z-score
TTAGGTCTCGGACTGGGTGAGTGCTAG,-0.397 z-score
GCCGATATCAGTCTCGAGACGTGCTAG,0.628 z-score
TCACCTTTGCCTCATCTTACTGTGCTA,2.15 z-score
TCATCGATTTCTCTTTCCACTGTGCTA,3.42 z-score
GTAGGTTTCGACTTTCGGTTAGTGCTA,10.5 z-score
GACGGTTTCGGTCTAGGGACGTGCTAG,6.9 z-score
GACGGTTGCGACTTTCGGGACGTGCTA,3.28 z-score
TCACAGAAGGGAAACAGGACTGTGCTA,-0.801 z-score

# Block 3
# Target: Fragile X messenger ribonucleoprotein 1, C-terminal low-complexity region (Fmr1, Mus musculus, UniProt P35922)
# Technique: RNA Bind-n-Seq
# Molecule type: RNA
# Sample: in vitro
# Tested at: 200 nM
# Setting: whole 134-nt RNA, ends assumed
# With: 150 mM LiCl
# Reference: input library
# Direction: higher = stronger binding
# Library: 7-deaza-guanosine replaces G
# Shared flanks, not repeated: GGGAGUUCUACAGUCCGACGAUC … UGGAAUUCUCGGGUGUCAAGG
Oligonucleotide,log2 enrichment
UGGACUUGCGGGUUCCCAUCUGGGACCAGGACAUACAGUUUCUCCCAGGAUCACAGAAGCUUGUCACCUGCACAGGGUACCACCAGGUAA,-0.43
UGGCCCUCAAGCACUGCACAGAGGCCCUUCUUUCUCUUGGCCAGUACUCCAUGGCAGACUUCACAGGGCCUUGUCCAUUGGAAAUAGAAC,0.352
CUCAAGUCCUGUGCUACACAUCGUAUGUACCGAAUCGGGCGGGCGGGGCGGGGAAAGUAUUAUGUUACGCCGUUCGGAUCUGCACUUCCA,0.318
ACCAUGCAGGUGGGCAUCUUUGGGAAGUGGGGCAAGGGGGGGAUAGGGAGGGGGGUAACACUUUGGGAAAAGGUGGUCCCAGGUCGUUUC,1.4
UCCUGUGCUACACAUCGUAUGUACCGAAUCAAACCCCCCCAAACCCAAACCCCCCCAAAAAAGUAUUAUGUUACGCCGUUCGGAUCUGCA,2.16
UUCCCGGAGAACUCGAGUAAAUCUAGAAGUUGCCAGGUUUCAGAACUAUUUAUUCCUUUAAUGUGCAGACGAAGGGAACGUCAUCGUUUG,-0.0759
CACAGACAACACGCACCCACACAGACUCAGAGGGAAGGGGUUGGGAUGGGGACAGGGUGCACAGCAGGGCGGGGUAGGACCCCAGCCCCU,0.419

# Block 4
# Target: Sal-like protein 4, full length isoform B (SALL4, Homo sapiens, UniProt Q9UJQ4-2, residues 1-616)
# Technique: universal PBM
# Molecule type: double-stranded DNA, one strand shown
# Sample: in vitro
# Tested at: not given
# Setting: 8-mer, flanks averaged, mean of replicates
# Direction: higher = stronger binding
Oligonucleotide,E-score
AGCAGTAG,-0.142
AAGCACAC,-0.0923
TCAATGCA,0.128
CTTGGCAC,-0.127
AGACTTTA,0.0504
CGTCATAA,0.33
ATGGGTCA,-0.0138
GACTGATC,-0.0316
CTCCATTC,-0.134
CCTTCGAC,-0.147
ACAACCCA,-0.0429
GCCCACTA,-0.0851
ATCTAGAT,0.0904
CGTGCACC,-0.22
CTATTGAA,0.214
GGCCGAGA,-0.12

# Block 5
# Target: RING finger protein unkempt homolog, zinc fingers 1-6, GST-SBP tag (UNK, Homo sapiens, UniProt Q9C0B0, residues 30-357)
# UniProt Q9C0B0, sequence (30-357, looked up): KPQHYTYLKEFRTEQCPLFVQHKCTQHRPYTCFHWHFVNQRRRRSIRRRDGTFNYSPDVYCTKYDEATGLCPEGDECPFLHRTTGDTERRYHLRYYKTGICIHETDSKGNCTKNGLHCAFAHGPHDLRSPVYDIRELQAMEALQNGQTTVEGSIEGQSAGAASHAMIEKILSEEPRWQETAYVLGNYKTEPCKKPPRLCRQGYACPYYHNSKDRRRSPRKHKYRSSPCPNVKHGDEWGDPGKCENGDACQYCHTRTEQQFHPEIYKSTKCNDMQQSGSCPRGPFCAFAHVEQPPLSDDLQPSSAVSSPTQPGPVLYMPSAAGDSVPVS
# Technique: RNA Bind-n-Seq
# Molecule type: RNA
# Sample: in vitro
# Tested at: not given
# Setting: RNA with constant flanks, human-mouse chimeric sites, ends assumed
# Reference: input RNA pool
# Direction: higher = stronger binding
# Shared flanks, not repeated: GGGAGUUCUACAGUCCGACGAUC … CAACAGAGGAUUGAGCAUCA
Oligonucleotide,bound/input enrichment
GUGUCCUUUCAACUUAAUAAAUCACUGAGGCAUCUCUACUGUUCUGUGAGCAUCAGGACUGUAGCGCUGUGUCACCACAUGAGAGUUCAGAAGCAGCCUUUCUGUGGAGGGUGGGAAUGA,0.193 ratio
CAGGGCACAGCACCUACCCCCUCCUCCUUUCCACACCUGCAAACUCUUUUACUUGGGCUGAAUAUUUAGUGUAAUUAACAUCGCAGCUUGAGGGCUCCUGUGGCAAAUUCCCGGAUUAAA,1.37 ratio
UAUCCAACUUUCUUGCCACAUUUUGAAUUCCAAGACAUUAUUCCUCCAGAUGACUUUCUAACGAGUGAUGAAGAGCAAGAUUUGGUUUUAUUUGGAACUAUGAGAGGACAAGUUGUUGGA,0.125 ratio
UUGCCUGAAAAUGAAGAUGAGCUGGAGAGCACCAACAGGCGCUACACCAAGAGGGACUGCAGCACUUUCCUCAGAACUAGUGAGACGGGCAUCGUGGACCAGGUCAUGGUCACUCUCAAC,0.164 ratio
AACAGAUUUCUCAAGCACAUUCCAAGCGAGAAUGCUGGGGUGAUCAUUGUUGCCCAUGUGCCUUCUGACUGAGCUUUAAUGCUGUUCCAUGUUACAUCUUUCCUUCACUCCAGAAUUGUU,0.156 ratio
GUAAUGUUUAUUCAUUUAACUUAUUUUUAUAGCUAGAUAAAUAUUGUUAGUCUUAGACAAUAGCUCACAUUUUUUGAAAAGCAUGCUCUCCCUGUCCAUUUGUCUUAUAACAUGACCCAG,31.8 ratio
AGAAUCUUGGGACUGUUUUACUUAAUUGGUCAUUGAUAGCUUAACAAGCAUGGAGAUAAGAUUAGAAAUCUUGACAUCAACAAGUAUUAAGCAGAAAAAACCAUGGCCACGUGUCUCCUG,0.109 ratio

# Block 6
# Target: ABI1, truncated, D143A, DHFR fusion (Arabidopsis thaliana)
# Technique: DHFR PCA, deep sequencing
# Sample: yeast
# Setting: methotrexate growth selection, single substitutions
# With: (+)-ABA 200 µM
# Reference: wild-type fitted maximum
# Direction: higher = stronger binding
# Parent: PYL1, truncated, DHFR fusion (Arabidopsis thaliana); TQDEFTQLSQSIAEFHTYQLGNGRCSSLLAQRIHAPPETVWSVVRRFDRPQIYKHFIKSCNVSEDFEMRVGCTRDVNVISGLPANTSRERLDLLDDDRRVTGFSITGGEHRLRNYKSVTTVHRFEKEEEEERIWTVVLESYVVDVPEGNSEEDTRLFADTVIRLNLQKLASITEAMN; partner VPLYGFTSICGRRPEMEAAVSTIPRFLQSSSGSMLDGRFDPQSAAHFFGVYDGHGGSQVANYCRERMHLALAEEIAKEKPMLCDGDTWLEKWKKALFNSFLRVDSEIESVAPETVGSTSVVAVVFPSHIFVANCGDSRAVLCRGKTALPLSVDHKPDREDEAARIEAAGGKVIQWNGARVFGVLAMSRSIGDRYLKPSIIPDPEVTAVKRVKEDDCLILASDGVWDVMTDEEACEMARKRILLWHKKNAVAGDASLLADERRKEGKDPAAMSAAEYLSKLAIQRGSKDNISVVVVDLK
Substitution,relative binding score
D48R,47%
R24M,92%
K116F,31.9%
S150T,98.8%
H16Q,12.7%
D159I,-5.13%
V62F,89.9%
S171T,101%
I172A,83.1%
L28C,87.9%
H55G,104%
R111I,38.5%

# Block 7
# Target: Prothrombin, mature alpha-thrombin (F2, Homo sapiens, UniProt P00734)
# Technique: aptamer microarray, sandwich
# Molecule type: DNA with 2'F-ANA
# Sample: in vitro
# Tested at: 200 nM
# Setting: whole 15-mer aptamer, many near background
# With: Cy3 exosite-II aptamer, 400 nM
# Direction: higher = stronger binding
# Oligonucleotide: GGTTGGTGTGGTTGG
Modification,mean fluorescence intensity [a.u.]
2'F-ANA at 1 2 4 8 11 13,96.3
2'F-ANA at 1 3 4 9 10 12 13 14 15,58.7
2'F-ANA at 1 7 8 9 10 13 15,74.1
2'F-ANA at 1 2 4 6 10 13 14 15,51.7
2'F-ANA at 1 8 12 13 14 15,78.9
2'F-ANA at 4 6 7 9 11,201
2'F-ANA at 1 3 5 6 7 12 13 14,48.2
2'F-ANA at 1 2 4 8 9 10 14 15,72.4
2'F-ANA at 3 5 6 10 13 14,46.4
2'F-ANA at 1 5 6 7 10 11 12,47.6
2'F-ANA at 1 5 8 10 11 14,49.2

# Excerpt of the above (block 6):
Substitution,relative binding score
H55G,104%
S150T,98.8%
L28C,87.9%
D48R,47%
H16Q,12.7%
V62F,89.9%
D159I,-5.13%
S171T,101%
R111I,38.5%
K116F,31.9%
R24M,92%
I172A,83.1%
